Results of several laboratories.
Each line is one published result; not all experiments were run side by side. ± gives the spread as reported.

With `CC(C)C[C@H](NC(=O)[C@H](Cc1ccccc1)NC(=O)[C@H](Cc1ccccc1)NC(=O)Cc1ccc(-c2ccccc2)cc1)C(=O)N[C@@H](CCCCN)C(=O)N[C@@H](CCCNC(=N)N)C(=O)N[C@H](C(=O)N[C@@H](Cc1c[nH]c2ccccc12)C(=O)N[C@@H](CCCCN)C(=O)N[C@@H](CCCNC(=N)N)C(=O)O)C(C)C` the intrinsic clearance was 1350 mL/min/kg (mouse liver microsomes).
`C[C@]12CC[C@H]3[C@@H](CC=C4CC(O)CC[C@@]43CO)[C@@H]1CCC2O` (stereo partly drawn) gave an intrinsic clearance of 69.8 µL/min/mg protein (rat liver microsomes).
The intrinsic clearance of `COc1ccc(S(=O)(=O)N2CCCCC2)cc1C` is reported as 49 L/min (human liver microsomes).
The intrinsic clearance of `Cc1c(COC(=O)[C@@H]2[C@H](/C=C(\Cl)C(F)(F)F)C2(C)C)cccc1-c1ccccc1` (racemic) is reported as 0 L/h/g liver (pooled human liver cytosol; scaled to in vivo).
`C[C@]12CC[C@H]3[C@@H](CCC4=CC(=O)CC[C@@]43C)[C@@H]1CC[C@@H]2O` gave an intrinsic clearance of 393 µL/min/mg (mouse liver microsomes; microsomes 0.5 mg/mL).
For `CCCCCCCCCN(C)C`, “intrinsic clearance in vivo” read 166 mL/h/g liver (RT-S9 substrate depletion; rainbow trout; non-shaken incubation).
For `C[C@H]1COCCN1c1nc(NCc2cccnc2C(F)(F)F)c2cccnc2n1`, the intrinsic clearance was 3.1 µL/min/10⁶ cells (human hepatocytes).
`O=C/C=C/c1ccccc1` — result for “intrinsic clearance (scaled)”: 143.3 ± 0.12 mL/min/kg (metabolic stability; human liver microsomes; 10 µM, pH 7.4).
The intrinsic clearance of `CC(C)(C)[C@H](NC(=O)C(F)(F)F)C(=O)N1C[C@H]2[C@@H]([C@H]1C(=O)N[C@H](C#N)C[C@@H]1CCNC1=O)C2(C)C` is reported as 93.4 µL/min/mg (mouse liver microsomes; microsomes 0.5 mg/mL).

For quick reference, copied from above:
The intrinsic clearance of `COc1ccc(S(=O)(=O)N2CCCCC2)cc1C` is reported as 49 L/min (human liver microsomes).
